Experimental data gathered from unrelated publications.
Compare with care: the assays were run in different laboratories. ± gives the spread as reported.
Target: fMet-Leu-Phe receptor (FPR1, Homo sapiens, UniProt P21462)
Sequence (P21462 1-350, as in one of the studies): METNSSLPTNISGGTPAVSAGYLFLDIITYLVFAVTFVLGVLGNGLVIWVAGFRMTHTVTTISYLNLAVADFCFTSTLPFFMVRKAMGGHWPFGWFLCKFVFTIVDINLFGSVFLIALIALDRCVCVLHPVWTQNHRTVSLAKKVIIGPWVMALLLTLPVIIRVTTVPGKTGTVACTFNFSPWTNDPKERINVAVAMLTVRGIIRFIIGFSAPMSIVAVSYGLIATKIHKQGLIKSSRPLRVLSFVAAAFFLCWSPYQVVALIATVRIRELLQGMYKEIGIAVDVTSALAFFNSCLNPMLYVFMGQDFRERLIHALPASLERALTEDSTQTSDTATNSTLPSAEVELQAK

Compound	test	system	conditions	quantity	value
COc1ccc2nc(SCC(=O)Nc3ccc(OC(F)(F)F)cc3)[nH]c2c1	calcium mobilization, agonist	HL-60 transfected with FPR1	–	EC50	11.6 µM
COc1ccc(OC)c(C2C(C(=O)c3ccccc3)=C(O)C(=O)N2CCCN2CCOCC2)c1 (centres unmarked)	fMLF-induced calcium mobilization, antagonist	HL-60 expressing FPR1	30 min pretreatment, inactive if none at 50 µM, added: 5 nM fMLF	IC50	5 µM
COc1cccc(Cc2cc(C)nn(C(C(=O)Nc3ccc(Br)cc3)c3ccccc3)c2=O)c1 (racemic)	calcium mobilization, agonist	HL-60 transfected with FPR1	–	EC50	3.1 µM
O=C(Nc1ccc([N+](=O)[O-])cc1)N[C@@H](Cc1c[nH]c2ccccc12)C(=O)NCC1(c2ccccn2)CCCCC1	β-arrestin recruitment, agonist	CHO-K1 expressing FPR1	–	EC50	18.5 ± 5.1 µM
CCCC(C(=O)Nc1ccc(Br)cc1)n1nc(C)cc(Cc2cccc(OC)c2)c1=O (racemic)	calcium mobilization, agonist	HL-60 transfected with FPR1	–	EC50	2.8 µM
COCCN1C(=O)C(O)=C(C(=O)c2ccc(C)cc2)C1c1ccc(OC)cc1OC (centres unmarked)	fMLF-induced calcium mobilization, antagonist	HL-60 expressing FPR1	30 min pretreatment, inactive if none at 50 µM, added: 5 nM fMLF	IC50	10.5 µM
CCOc1ccc2nc(SCC(=O)Nc3ccc(Br)cc3)[nH]c2c1	calcium mobilization, agonist	HL-60 transfected with FPR1	–	EC50	13.2 µM
N#Cc1ccc(C[C@H](NC(=O)Nc2ccc(O)cc2)C(=O)NCC2(c3ccccc3)CC2)cc1	calcium mobilization	FPR1-transfected HL-60	desensitization pretreatment, added: fMLF 5 nM	IC50	16.4 ± 3.4 µM
COc1ccc2nc(SCC(=O)Nc3ccc(S(N)(=O)=O)cc3)[nH]c2c1	calcium mobilization, agonist	HL-60 transfected with FPR1	–	EC50	14.9 µM
O=C(Nc1ccc([N+](=O)[O-])cc1)N[C@H](Cc1c[nH]c2ccccc12)C(=O)NCC1(c2ccccc2)CCCCC1	fMLF-induced Ca2+ flux, antagonist	HL-60 expressing FPR1	up to 50 µM, 30 min, added: fMLF 5 nM	IC50	no inhibition
CCCCC(C(=O)Nc1ccc(Br)cc1)n1nc(C)cc(Cc2cccc(OC)c2)c1=O (racemic)	calcium mobilization, agonist	HL-60 transfected with FPR1	–	EC50	1.1 µM

Repeated from above:
Compound	test	system	conditions	quantity	value
O=C(Nc1ccc([N+](=O)[O-])cc1)N[C@@H](Cc1c[nH]c2ccccc12)C(=O)NCC1(c2ccccn2)CCCCC1	β-arrestin recruitment, agonist	CHO-K1 expressing FPR1	–	EC50	18.5 ± 5.1 µM
